Assay results pooled from the literature.
Every numbered part comes from another study and shows a few of its results, in no order.

Set 1
Target: RNA binding protein fox-1 homolog 2, RRM domain, GST-SBP tag (RBFOX2, Homo sapiens, UniProt O43251-10, residues 100-194)
Method: RNA Bind-n-Seq
Form: RNA
Matrix: in vitro
Concentration: 365 nM
Setting: natural RNA segment, single round, ends assumed
Relative to: no-protein control
Direction: higher = stronger binding
Target sequence (chain): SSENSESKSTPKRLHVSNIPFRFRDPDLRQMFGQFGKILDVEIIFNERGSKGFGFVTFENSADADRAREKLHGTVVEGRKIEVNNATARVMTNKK
Oligonucleotide	RBNS enrichment (R)
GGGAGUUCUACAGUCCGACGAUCCUGGCUCAGCAUAUACAAGUUAGCUUGCUUUAGGCAAGGGACCUUUCUUGUGAUGGACGUGCACUACGAAGUGAGAUGGAGUCCUGCUCCGUGCAGGAGGCCCUUCAUUAUGGAAUUCUCGGGUGCCAA	0.284
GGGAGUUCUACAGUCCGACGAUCUACCCUCUUUAACAACAUAAAUUCAUAGCUAAAGAAAAACUGCAUGUGCAAAUAAUACCAUAUUCAUUUUUUAUUUAACAUGGGGAUGGAAUGGGGAUAGCAUACAUUUUUGGAAUUCUCGGGUGCCAA	2.07
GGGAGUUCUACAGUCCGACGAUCACUGAACACAUGUGUAUGAUACUAAAGACGGUAUUAAAAUGGAGCGACGUUUAUUUCAUCUCUUGUUUACGAUUUCACUAGGACUCAGAAACGAGAUCGGGAAGCAGAAAUGGAAUUCUCGGGUGCCAA	0.7
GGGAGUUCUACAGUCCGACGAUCACAGAUGGGCAGAGAUGGUCCCCACAGCUUCAGCCCAUCAUCAUCCCCAGAGGCCGAGCAGGGAGGGAGUGGAGCUGAGCCCCUGAAAUCCUGCACGUAGCUGAGUGAGCUGGAAUUCUCGGGUGCCAA	2.28
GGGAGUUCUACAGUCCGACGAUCUUUUUCUUCUAGCAUUUAUAAUUUUUUCAACUCCUAUUGUGUUUCUUUGUGUGUGAUAUUUUAAUCAAAAGUGGUUGAGUUGUUAACAGUGUUCUUUGAAAGAAUCUCUAUGGAAUUCUCGGGUGCCAA	2.07
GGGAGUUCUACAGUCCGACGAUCCGGGCUGGCAGGCGCUGACUGCCUCAGCCCAUGUGCCCUGCCGGCCAGGGCGUGGCCUCCCCAAGGCUGUGGUGCCCCUUCUGGCUCCCCCAGGUCAGGUCCGCGCCCUUUGGAAUUCUCGGGUGCCAA	0.237
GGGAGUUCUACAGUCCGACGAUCAUUUAAGUGUUUUAGAUAAAUUUAAGUUACUCCAUAUGAAAUGUUUAAUUUCAGCUACUGUGAAUUCUUUCGAUCAGUCCUUUGCUUUUUUAAAAAAUCUUUUCCAUCGUUGGAAUUCUCGGGUGCCAA	1.14
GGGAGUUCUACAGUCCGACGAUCACACUAAGUUGGUGUACUGCCUCGACCUUUUUUCAGCUCAUCCUGGAACAUAUACAGAGUUGAGAGUUUUAGACAAUCUCUAGGUAGAGGAGACAAGAUGUAGACCCAGAUGGAAUUCUCGGGUGCCAA	0.554

Set 2
Target: Centromere-binding protein 1, full length, N-terminal tag (CBF1, Saccharomyces cerevisiae, UniProt P17106, residues 1-351)
Chain of UniProt P17106 (whole entry, looked up): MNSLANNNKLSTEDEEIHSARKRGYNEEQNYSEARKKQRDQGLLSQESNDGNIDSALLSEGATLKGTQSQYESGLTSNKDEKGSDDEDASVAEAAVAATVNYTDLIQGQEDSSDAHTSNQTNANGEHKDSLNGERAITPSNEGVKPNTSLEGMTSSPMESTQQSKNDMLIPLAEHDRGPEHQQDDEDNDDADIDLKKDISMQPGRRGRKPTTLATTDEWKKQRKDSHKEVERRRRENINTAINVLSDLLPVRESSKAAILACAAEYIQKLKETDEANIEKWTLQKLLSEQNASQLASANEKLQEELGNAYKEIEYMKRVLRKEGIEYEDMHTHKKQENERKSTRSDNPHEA
Method: protein-binding microarray
Form: double-stranded DNA, one strand shown
Matrix: in vitro
Concentration: 0.8 µM
Setting: whole 60-bp probe, no competitor
Direction: higher = stronger binding
Oligonucleotide	fluorescence intensity [a.u.]
CTATATGTGTTTATTCACGTTCACTGTGTGTTCTTCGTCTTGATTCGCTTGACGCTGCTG	540
CTATACACATACACATTCGTGCATACATTCATTTTCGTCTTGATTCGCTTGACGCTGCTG	545
CTAAACGTTGCCTTTGTCGTGATTTTGTGCGAGTTCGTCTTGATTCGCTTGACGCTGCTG	563
TGTACGAAGCTATACCACATGTGTATAGTAGTTAGGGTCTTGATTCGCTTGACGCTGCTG	752
GAAGTGATAAAACCTCACGTATGACACACTGGATAGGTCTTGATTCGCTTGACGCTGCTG	570
TGTACGAAGCTATTGATCATTTCTATAGTAGTTAGGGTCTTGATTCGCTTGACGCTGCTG	518
GAATTATTATTTTGTCACACGTCTCCCTTGAATTAGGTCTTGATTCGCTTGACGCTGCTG	678
TGTACGAAGCTATGTGACCCAAATATAGTAGTTAGGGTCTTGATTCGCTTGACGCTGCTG	584
GAAGATACATAATTTCAGACCACTTAATCTCATTAGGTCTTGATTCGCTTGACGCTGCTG	513
CTAATATGGCCACTCAACGTGCCCAAGGAAAGTTTCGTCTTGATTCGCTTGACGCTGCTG	524
GAAAGGAGACACCGCCACCACCTGAGCCTCCATTAGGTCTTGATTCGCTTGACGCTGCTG	497
GAATGCCAAGGGATGCACGAGAAAAGCACTTATTAGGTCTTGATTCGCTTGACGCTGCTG	571
CTAGTAAAAGCACGTGATATTGCCTTTTTCTTTTTCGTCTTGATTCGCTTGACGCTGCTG	14600
CTACATATTTATGATAGCATCAGATTCATTTCCTTCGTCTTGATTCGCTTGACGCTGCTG	513

Set 3
Target: Hepatocyte nuclear factor 3-alpha (Foxa1, Mus musculus, UniProt P35582, residues 1-468, full length assumed)
Chain of UniProt P35582 (whole entry, looked up): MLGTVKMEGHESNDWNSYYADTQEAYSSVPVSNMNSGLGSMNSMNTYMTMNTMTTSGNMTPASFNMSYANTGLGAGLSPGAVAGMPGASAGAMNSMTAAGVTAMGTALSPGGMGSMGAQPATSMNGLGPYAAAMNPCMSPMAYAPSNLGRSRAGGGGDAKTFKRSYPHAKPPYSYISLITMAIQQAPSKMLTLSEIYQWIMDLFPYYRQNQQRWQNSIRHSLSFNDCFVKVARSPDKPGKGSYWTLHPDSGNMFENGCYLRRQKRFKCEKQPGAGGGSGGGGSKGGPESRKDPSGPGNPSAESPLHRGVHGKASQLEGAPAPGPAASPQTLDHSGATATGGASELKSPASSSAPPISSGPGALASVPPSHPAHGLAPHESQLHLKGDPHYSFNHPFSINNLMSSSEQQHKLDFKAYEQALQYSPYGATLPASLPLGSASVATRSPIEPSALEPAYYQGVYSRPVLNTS
Method: EMSA with sequencing
Form: double-stranded DNA, one strand shown
Matrix: in vitro
Concentration: 10 and 20 nM
Setting: whole designed probe, mean of two concentrations, ends assumed
Relative to: negative control set to 0
Direction: higher = stronger binding
Oligonucleotide	normalised bound fraction [ratio]
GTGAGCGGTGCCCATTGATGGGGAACCATTAGAGTCAAAGTTGTTAAGGGGAGCTAGTCATAGCTACCACGTGGCCAGGCATGTGGAACCAGACACCAGGCACACATCATGTAACATCATATTTACTTTAAATAATGCTGACATGAATCATCATAGTGACACACTACTTGAGATATATAGAATAACATTATTACCCAGTAAGTATGTGAACATTCCGATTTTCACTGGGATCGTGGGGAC	0.328
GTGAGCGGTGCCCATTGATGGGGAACTGTCCTGGAAGAAGTCCTTATGTGTATGATCTTACTGTAATACCCAGTCTTTATGGACCCATGGCAGTTGACCACTATACTTCATGTACAAAGTAAACATAGGAATGGGAAATGGTATTACTTTGAAAATGGCAACGTGTCCCTAGACTGTTAAGGATCAAATAGTGATGCAAGCAGCATATGTGCTTTTTAATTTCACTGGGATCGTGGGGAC	0.477
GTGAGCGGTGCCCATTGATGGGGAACATCTTCCCCCTCTTCCTTGCCCCACCAGCTCACCTTCCCGGGTTGTTTACTTTGAGGAAATTAATATAAGCCGGCATTCGTTAACCCTCTTCTGGCGCAAACTGCCAGAGCAAACAGATGAATCATGGTCCTTTGGCGACGCCAGGCTCCGGGAGAGCAAAGCACCGTGTCAGGGCCATGATCCGGGGTGGCCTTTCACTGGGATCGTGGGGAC	0.341
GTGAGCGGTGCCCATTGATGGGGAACATCTTCCCCCTCTTCCTTGCCCCACCAGCTCACCTTCCCGGGTTATTTGCAGATAGGAAAATAAATAAAGCCGGCATTCGTTAACCCTCTTCTGGCGCAAACTGCTGTTTGCTCTGGATGAATCATGGTCCTTTGGCGACGCCAGGCTCCGGGAGAGCAGTAACCGGACTCAGGGCCATGATCCGGGGTGGCCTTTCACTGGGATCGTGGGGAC	0.329
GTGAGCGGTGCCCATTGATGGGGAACCCACACTGGACAATACTGCATTGTACACCTAAAATTCCATTAAGAGGGTAGATCTCATGTAAAGTATTTACAACACAAGAAAATTTTTTAAAGTGTTTACATATTTAATAAATACTTTTTTCTATTTCTTAGCATACAGCACCAATGTAAATAAATATTAATTATAGCATCCACAGTTAAATTTCTCAATATTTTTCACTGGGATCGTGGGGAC	0.48

Set 4
Target: Histone acetyltransferase KAT6A, winged helix 1, GST fusion (KAT6A, Homo sapiens, UniProt Q92794, residues 1-85)
Method: protein binding microarray
Form: double-stranded DNA, one strand shown
Matrix: in vitro
Concentration: not given
Setting: 8-mer, flanks averaged, mean of 2 arrays, mostly near background
Relative to: not given
Direction: higher = stronger binding
Residues (chain): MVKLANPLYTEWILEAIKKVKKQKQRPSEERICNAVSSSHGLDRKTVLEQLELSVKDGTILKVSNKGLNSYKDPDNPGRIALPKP
Oligonucleotide	E-score
GATAATGA	-0.16
AATCGGTG	-0.0526
GCCCGATA	0.0689
ACCTAGCC	0.064
GTGAGTCA	-0.147
AACTATTC	0.068
GTTTCAAA	-0.0872
CCCAACGC	0.0966
ATGTTAGG	-0.0719
CTCGTCCC	-0.00159
TTCTGAAA	-0.0549
GGATAACA	-0.115
GAGAAAGA	-0.105
GAAAAGGA	-0.219
AGGAATAG	-0.104
CGACGGTA	0.381
AACGGGGT	0.137
CCAATAGA	-0.259

Repeated from above (set 1):
Oligonucleotide	RBNS enrichment (R)
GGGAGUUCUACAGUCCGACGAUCACUGAACACAUGUGUAUGAUACUAAAGACGGUAUUAAAAUGGAGCGACGUUUAUUUCAUCUCUUGUUUACGAUUUCACUAGGACUCAGAAACGAGAUCGGGAAGCAGAAAUGGAAUUCUCGGGUGCCAA	0.7
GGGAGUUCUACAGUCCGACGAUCACAGAUGGGCAGAGAUGGUCCCCACAGCUUCAGCCCAUCAUCAUCCCCAGAGGCCGAGCAGGGAGGGAGUGGAGCUGAGCCCCUGAAAUCCUGCACGUAGCUGAGUGAGCUGGAAUUCUCGGGUGCCAA	2.28
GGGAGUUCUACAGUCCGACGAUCUUUUUCUUCUAGCAUUUAUAAUUUUUUCAACUCCUAUUGUGUUUCUUUGUGUGUGAUAUUUUAAUCAAAAGUGGUUGAGUUGUUAACAGUGUUCUUUGAAAGAAUCUCUAUGGAAUUCUCGGGUGCCAA	2.07
